Published values collected from several papers.
Compare with care: the assays were run in different laboratories. ± gives the spread as reported.

C[C@H](CN(C)Cc1ccccc1)NC(=O)c1ccc(-c2noc(C(F)(F)[18F])n2)cc1 — hippocampus-to-cerebellum ratio (PET; Sprague-Dawley rat, female, hippocampus and cerebellum; intravenous, 60 min; baseline: hippocampus SUV over cerebellum SUV): 1.76 ± 0.21
CC/C=C\C/C=C\C/C=C\C/C=C\C/C=C\CCCCOC(CC)C(=O)O (stereo not drawn) — tissue concentration (radioactivity, 14C-labelled; Wistar rat, male, liver; oral, 100 mg/kg, 3 days): 2.7 µg equivalents/g tissue
C[C@H](Oc1cc(-c2cnn(C3CCN(CC[18F])CC3)c2)cnc1N)c1c(Cl)ccc(F)c1Cl — tracer uptake (PET imaging; nude mouse, heart; iv, 60 min post injection): 1.6 ± 0.4 %ID/cc
NS(=O)(=O)c1ccc(N2N=C(C(F)(F)F)CC2c2ccc(F)cc2F)cc1 (stereo not drawn) — CL2/F to pyrazol metabolite (population PK model; Beagle dog; bootstrap median): 0.513 L/h
Clc1ccc(C(c2c[nH]c3ccccc23)c2c[nH]c3ccccc23)cc1 — half-life (C57BL/6 mouse, male, midbrain; oral, 25 mg/kg): ~15 min
CC[C@H](C)[C@H](NC(=O)[C@H](N)Cc1ccc(O)cc1)C(=O)N[C@H]1CSSC[C@@H](C(=O)N(C)[C@H](C(N)=O)[C@@H](C)CC)NC(=O)[C@H](CCCNC(=N)N)NC(=O)[C@H](Cc2c[nH]cn2)NC(=O)[C@H](C)NC(=O)CN(C)C(=O)[C@H](Cc2c[nH]c3ccccc23)NC(=O)[C@H](CC(=O)O)NC(=O)[C@H](CCC(N)=O)NC(=O)[C@H](Cc2cn(C)c3ccccc23)NC(=O)[C@H](C(C)C)NC1=O — recovery (UPLC-ESI-MS; cynomolgus monkey plasma; 0.18 µg/mL, 48 h, 4 °C, autosampler after SPE): 100.2 ± 0.2%
CCCC[C@H](NC(=O)CNC(=O)CNC(=O)CN1CCN(CC(=O)O)CCN(CC(=O)O)CCN(CC(=O)O)CC1)C(=O)N[C@H]1CC(=O)NCCCC[C@@H](C(N)=O)NC(=O)[C@H](Cc2c[nH]c3ccccc23)NC(=O)[C@H](CCCNC(=N)N)NC(=O)[C@@H](Cc2ccccc2)NC(=O)[C@H](Cc2c[nH]cn2)NC1=O [copper-64 labelled] — tissue uptake (female C57 mouse, B16/F1 melanoma, bone; intravenous, 0.037 MBq, 2 h): 0.82 ± 0.28 %ID/g
N=C(N)NCCC[C@H](NC(=O)[C@H](Cc1c[nH]c2ccccc12)NC(=O)[C@H](CCC(N)=O)NC(=O)[C@H](Cc1c[nH]c2ccccc12)NC(=O)[C@@H](N)CCCNC(=N)N)C(=O)N[C@@H](Cc1c[nH]c2ccccc12)C(=O)N[C@@H](CCC(N)=O)C(=O)N[C@@H](Cc1c[nH]c2ccccc12)C(N)=O — haemolytic concentration (erythrocytes): > 12.5 µg/mL
CC(C)c1cnc(-c2cc(Cl)ccc2F)cc1Nc1ccncc1C(=O)NC(CO)CO — patients with related SAE (measured: anaemia; human patients; oral, dose not given, grade 3): 4.8%
N=C(N)NCCC[C@@H]1NC(=O)[C@H](Cc2c[nH]c3ccccc23)NC(=O)[C@@H](CC2CCCCC2)NC(=O)[C@@H]2CCCN2C(=O)[C@@H](NC(=O)CCc2ccccc2)CCCNC1=O — alpha rate constant (two-compartment model; C57BL/6J mice, plasma; subcutaneous, 1 mg/kg): 0.03 min⁻¹
O=C(Cc1ccc(-c2ccc(OCCN3CCOCC3)cc2)cn1)NCc1ccc(F)cc1 — unbound fraction (human, plasma): 0.126
NC[C@@H](C(=O)Nc1ccc(-c2cn[nH]c2)cc1)c1ccccc1 — total eye irritation score (OECD 405 eye irritation; New Zealand White rabbit, eye; topical, 0.1%, 49 h (day 3); direction not given): 1
Clc1ccc2c(c1)nc(NCC1CCCN1)n2Cc1ccccc1 (stereo not drawn) — compound remaining (metabolic stability; mouse, liver microsomes; 0.1 µM, 30 min, pH 7.4): 98.9%
CC(C)C[C@H](NC(=O)[C@H](CC(C)C)NC(=O)[C@@H](NC(=O)[C@H](Cc1ccccc1)NC(=O)[C@@H](Cc1c[nH]c2ccccc12)NC(=O)[C@@H](N)CCCCN)[C@@H](c1ccccc1)c1c[nH]c2ccccc12)C(N)=O — HPLC retention (RP-HPLC Jupiter Proteo; acetonitrile/water TFA gradient): 54.4 %B
CC(C)C[C@@H](NC(=O)[C@H](NC(=O)[C@H]1CCCN1)[C@H](C)O)C(=O)N[C@H](Cc1c[nH]cn1)C(=O)N[C@@H](C(=O)N[C@H](Cc1c[nH]cn1)C(=O)N[C@H](CC(N)=O)C(=O)N[C@H](CCCNC(=N)N)C(=O)N[C@H](CCCNC(=N)N)C(=O)N[C@H](CCCNC(=N)N)C(=O)N[C@H](CCCNC(=N)N)C(=O)N[C@H](CCCNC(=N)N)C(N)=O)[C@H](C)O — fraction of AUC from gamma half-life (Beagle dog, plasma; oral, 50 mg/kg single dose): 25%
